Assay results from different studies.
Numbered parts are unrelated; each lists some results of a single study. Substitutions count along the parent as printed.

Study 1
Target: Ras GTPase-activating protein-binding protein 1, RRM domain (G3BP1, Homo sapiens, UniProt Q13283)
Sequence of UniProt Q13283 (whole entry, looked up): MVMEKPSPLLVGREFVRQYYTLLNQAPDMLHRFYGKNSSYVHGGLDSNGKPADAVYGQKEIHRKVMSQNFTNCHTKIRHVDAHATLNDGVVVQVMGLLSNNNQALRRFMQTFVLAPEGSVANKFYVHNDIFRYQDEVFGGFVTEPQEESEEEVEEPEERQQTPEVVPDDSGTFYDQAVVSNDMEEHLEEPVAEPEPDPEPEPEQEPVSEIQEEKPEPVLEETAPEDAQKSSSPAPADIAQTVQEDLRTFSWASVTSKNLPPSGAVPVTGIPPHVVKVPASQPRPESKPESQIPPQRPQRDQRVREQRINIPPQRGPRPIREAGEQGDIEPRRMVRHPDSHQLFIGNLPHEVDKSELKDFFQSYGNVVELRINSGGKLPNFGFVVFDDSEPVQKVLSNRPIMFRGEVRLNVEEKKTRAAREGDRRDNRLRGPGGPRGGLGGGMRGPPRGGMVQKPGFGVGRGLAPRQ
Technique: RNA Bind-n-Seq
Molecule type: RNA
Medium: in vitro
Tested at: 1 µM
Setting: whole 134-nt RNA, ends assumed
With: 150 mM KCl
Reference: input library
Direction: higher = stronger binding
Strand | log2 enrichment
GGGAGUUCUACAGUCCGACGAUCGUCCUGUGCUACACAUCGUAUGUACCGAAUCGGGAAAAAGGAAAAAGGGAAAAAGGGGAAAGUAUUAUGUUACGCCGUUCGGAUCUGCACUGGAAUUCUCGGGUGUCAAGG | 0.0158
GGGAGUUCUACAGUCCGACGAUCGUAGGAAGUAAAAACAAAUGGAAAUGCUUCGGAUAGUGGCAGGGGUGGGGGUUGCUAAGGAAAGGGUGGGAUGGGAGUGGGUAAAGAGUUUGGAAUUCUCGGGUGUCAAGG | 0.746
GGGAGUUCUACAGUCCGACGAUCUGGCCCUGGUGGCAUGCGGGGAGGAAGAGGUGGCCUCAUGGAUCGUGGUGGUCCCGGUGGAAUGUUCAGAGGUGGCCGUGGUGGCGACAGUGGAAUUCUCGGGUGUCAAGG | 1.58
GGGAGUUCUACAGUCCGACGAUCUGUGCUACACAUCGUAUGUACCGAAUCGGGGUUUUUUUGGGGUUUUUUUGGGGUUUUUGGGGAAAGUAUUAUGUUACGCCGUUCGGAUCUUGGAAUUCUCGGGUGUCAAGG | 0.835
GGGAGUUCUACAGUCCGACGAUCCCUGUGCUACACAUCGUAUGUACCGAAUCGGGGAAAAAGGGGUUUUUGGGGAAAAAGGGGAAAGUAUUAUGUUACGCCGUUCGGAUCUGCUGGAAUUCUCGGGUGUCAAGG | 0.723
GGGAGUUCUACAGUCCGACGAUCAGUCCUGUGCUACACAUCGUAUGUACCGAAUCGGAAAAAGGUUUUUUUGGAAAAAGGAAAGUAUUAUGUUACGCCGUUCGGAUCUGCACUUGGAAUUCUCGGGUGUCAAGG | -0.376
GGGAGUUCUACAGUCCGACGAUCGCAGGAAGUAAAAAGAAAUGGAAAUGCUUCGGAUAGUGGCAGGGGUGGGGGUUGCUAAGGAAAGGGUGGGAUGGGAGUGGGUAAAGAGUUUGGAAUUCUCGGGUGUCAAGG | 1.22
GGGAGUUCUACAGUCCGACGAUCUAACUUUAGAGGAGGAUCUGAUGGAUAUAGCAGUGGACGUGGAUUUGGGGAUGGCUAUAAUGGGUAUGGAGGAGGACCUGGAGGUGGCAAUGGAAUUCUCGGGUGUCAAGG | -0.671
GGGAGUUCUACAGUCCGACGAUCUGCUUCAUCGCCUUGUGCUCCUGCCCCUGGGAGCUGUGGAUCCCAGAUCCAGAUGACAGCCCACCUUGCUGGCAGGAUGCGCCAAUCCCCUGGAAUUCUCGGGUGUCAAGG | -0.396
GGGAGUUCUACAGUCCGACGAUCUCUAUUCAUAAGAACCCCAACACAUCGGAGCCCCAACACCUGUUGGUGAUGAAGGGCGCCCCAGAAAGGAUCCUAGACCGUUGCAGCUCUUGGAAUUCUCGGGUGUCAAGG | 0.0574

Study 2
Target: Interferon regulatory factor 5, full length, phosphomimetic (IRF5, Homo sapiens, UniProt Q13568-2, residues 1-514, S451D/S453D/S456D/S462D)
Technique: protein-binding microarray
Molecule type: double-stranded DNA, one strand shown
Medium: in vitro
Tested at: 940 nM top
Setting: 60-bp whole probe
With: salmon DNA 0.4 mg/ml
Reference: random background probes
Direction: higher = stronger binding
All sequences stand within: GCCTAGCAC … GTCTTGATTCGCTTGACGCTGCTG
Strand | fitted relative affinity [z-score]
TCCCCTCTAGGTCTTCTGAAGTGCTAG | -0.185
GACGGTTTCGGGACTCGGGACGTGCTA | 6.42
TTGGATCTCAGACTGGATTAGTGCTAG | -0.581
GACGGACTGCATCTCCTGACGTGCTAG | -0.375
GAGGATTTCAGACTGGAGACGTGCTAG | -0.619
TTAGGTTTCGGTCTCGGTTAGTGCTAG | 14.5
GACGATTTCGGGTTCCGAGACGTGCTA | 0.541
GACGGTTTCGAGTATCGGGACGTGCTA | 7.58
ATGGTCCTCTCTCTATTCAGGTGCTAG | 0.87
TCATGGATGTGTTTTAAACTGTGCTAG | -0.165
GACGGTAACGGACTGGGGACGTGCTAG | -0.528
TCAGTTTCTCCTTTCGGACTGTGCTAG | 5.03
GAAGCTTCCTCTCTGCCACTGTGCTAG | 0.163
TACCTTAGGTTTTCTGGTTCCGTGCTA | 0.255
GACGGACTGCTTATCCAGACGTGCTAG | -0.466
TCATTTTTAGCTTGCAAACTGTGCTAG | -0.21
TTAGAACGGGGGACTGGATTAGTGCTA | 1.26

Study 3
Target: CCNA2, cyclin fold, Cln2 fusion (human)
Technique: yeast growth competition, sequencing
Medium: yeast
Setting: strong parent motif
Reference: not given
Direction: higher = stronger binding
Starting sequence: E2F1 docking peptide (human); PPVKRRLDLETDH; partner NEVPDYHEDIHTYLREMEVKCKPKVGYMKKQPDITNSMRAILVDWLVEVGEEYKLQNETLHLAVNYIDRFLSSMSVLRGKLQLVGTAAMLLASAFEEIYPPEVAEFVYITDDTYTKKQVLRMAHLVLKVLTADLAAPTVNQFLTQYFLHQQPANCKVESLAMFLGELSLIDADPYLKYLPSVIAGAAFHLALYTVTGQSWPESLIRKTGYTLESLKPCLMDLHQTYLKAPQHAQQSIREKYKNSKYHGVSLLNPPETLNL
Change | normalised enrichment score
PNVKRRLDLETDH [P2N] | 3.87
PPVKRRLDLTTDH [E10T] | 4.35
PPVKRRLGLETDH [D8G] | 2.17
PPVKRRLDLETQH [D12Q] | 4.85
PPVKRRLDLETDQ [H13Q] | 4.23
PPVKRRLDLETIH [D12I] | 3.89
PPVKRRLDLSTDH [E10S] | 4.09
PPVVRRLDLETDH [K4V] | 2.49
PPVWRRLDLETDH [K4W] | 1.54
PPLKRRLDLETDH [V3L] | 1.34
PHVKRRLDLETDH [P2H] | 3.86
PPVKRRRDLETDH [L7R] | 0.465
PPVKRALDLETDH [R6A] | 1.72

Study 4
Target: Histone acetyltransferase KAT6A, winged helix 1, GST fusion (KAT6A, Homo sapiens, UniProt Q92794, residues 1-85)
Technique: protein binding microarray
Molecule type: double-stranded DNA, one strand shown
Medium: in vitro
Tested at: not given
Setting: 8-mer, flanks averaged, mean of 2 arrays, mostly near background
Reference: not given
Direction: higher = stronger binding
Target sequence (chain): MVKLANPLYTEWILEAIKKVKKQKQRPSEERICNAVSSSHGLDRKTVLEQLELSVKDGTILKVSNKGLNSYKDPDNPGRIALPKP
Strand | E-score
ATGACGCA | 0.0528
AACGGGTC | 0.312
GAGACCTA | -0.121
CCTCCATC | -0.11
CTGCATTA | 0.0115
GTTATAAA | -0.125
AACAAGCT | -0.21
GCTTGTCA | -0.0652
CACAACAA | -0.055
GTATCTGA | -0.0354
AATCACTC | -0.269
CGATAAGC | 0.17
AAATTTGC | -0.16
AAGTTCAA | -0.0848
CGGGCTGC | 0.272
AGTGAGTG | -0.239
GACGGTCA | 0.185
GATGGTCC | -0.0595
AGAATAGA | -0.162

Study 5
Target: Sal-like protein 4, full length isoform B (SALL4, Homo sapiens, UniProt Q9UJQ4-2, residues 1-616)
Technique: universal PBM
Molecule type: double-stranded DNA, one strand shown
Medium: in vitro
Tested at: not given
Setting: 8-mer, flanks averaged, mean of replicates
Direction: higher = stronger binding
Construct (chain): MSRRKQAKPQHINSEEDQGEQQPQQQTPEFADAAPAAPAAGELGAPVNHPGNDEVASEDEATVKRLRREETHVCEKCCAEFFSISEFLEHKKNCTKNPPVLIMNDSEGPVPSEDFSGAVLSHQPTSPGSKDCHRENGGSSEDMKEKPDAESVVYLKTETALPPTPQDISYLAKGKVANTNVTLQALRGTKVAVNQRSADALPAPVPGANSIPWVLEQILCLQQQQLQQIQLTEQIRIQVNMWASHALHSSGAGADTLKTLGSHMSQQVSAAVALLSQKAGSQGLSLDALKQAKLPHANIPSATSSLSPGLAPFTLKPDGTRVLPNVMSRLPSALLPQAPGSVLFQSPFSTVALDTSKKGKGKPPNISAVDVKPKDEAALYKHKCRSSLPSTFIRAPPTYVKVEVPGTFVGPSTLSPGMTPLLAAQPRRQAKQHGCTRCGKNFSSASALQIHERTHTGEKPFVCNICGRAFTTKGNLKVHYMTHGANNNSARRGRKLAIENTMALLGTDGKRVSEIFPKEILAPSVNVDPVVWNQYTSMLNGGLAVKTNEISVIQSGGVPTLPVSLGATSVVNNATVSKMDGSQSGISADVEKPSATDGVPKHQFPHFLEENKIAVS
Strand | E-score
ATTCATAG | 0.34
CGTTGAAA | -0.00216
CCCCAAGC | -0.209
GAATTTCC | 0.0571
GAGGGCTA | -0.141
CAGTGTTC | -0.00811
GCCGCAGA | -0.237
CGGCGTAG | -0.144
ATGGACAC | 0.0645
CTAGAGTC | -0.0673
GAATTGAA | 0.191
CGCTTGAC | -0.179
ACATTAGG | 0.168

Study 6
Target: ABI1, truncated, D143A, DHFR fusion (Arabidopsis thaliana)
Technique: DHFR PCA, deep sequencing
Medium: yeast
Setting: methotrexate growth selection, single substitutions
With: (+)-ABA 4.8 µM
Reference: wild-type fitted maximum
Direction: higher = stronger binding
Starting sequence: PYL1, truncated, DHFR fusion (Arabidopsis thaliana); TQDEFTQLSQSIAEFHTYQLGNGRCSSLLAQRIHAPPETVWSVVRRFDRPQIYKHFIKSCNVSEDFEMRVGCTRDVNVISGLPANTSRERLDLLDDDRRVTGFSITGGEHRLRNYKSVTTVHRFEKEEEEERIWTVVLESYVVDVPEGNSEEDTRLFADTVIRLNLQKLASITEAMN; partner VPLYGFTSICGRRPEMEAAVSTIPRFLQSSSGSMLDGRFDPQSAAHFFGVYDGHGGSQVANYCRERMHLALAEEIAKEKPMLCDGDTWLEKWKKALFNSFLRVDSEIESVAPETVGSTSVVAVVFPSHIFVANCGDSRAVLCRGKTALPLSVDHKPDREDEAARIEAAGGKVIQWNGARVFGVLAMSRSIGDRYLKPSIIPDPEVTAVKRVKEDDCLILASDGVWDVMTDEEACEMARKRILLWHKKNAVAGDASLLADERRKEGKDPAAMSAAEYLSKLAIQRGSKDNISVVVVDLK
Change | relative binding score
H122W | -0.0739%
S140W | -3.01%
T86K | 54.3%
G71N | 14.3%
C72F | 23.1%
L8Y | 72.3%
R90N | 0.475%
V118N | 20.4%
L112V | 4.24%
L91Y | 0.323%
G102D | -7.01%
P146F | -6.97%
F103Q | 4.19%

For quick reference, copied from above (study 5):
Strand | E-score
ATTCATAG | 0.34
CGCTTGAC | -0.179
CGGCGTAG | -0.144
CGTTGAAA | -0.00216
GAATTTCC | 0.0571
GAGGGCTA | -0.141
CCCCAAGC | -0.209
ACATTAGG | 0.168
GCCGCAGA | -0.237
